Values quoted from earlier work as cited in several papers.
Each line is one published result; not all experiments were run side by side.

Cc1nn(C)cc1S(=O)(=O)NC(=O)c1ccc(-n2ccc(OCC(C)(C)C(F)(F)F)n2)nc1N1C[C@@H](C)CC1(C)C — pKa (monoprotic acid): 5.04
N=C(N)NCCC[C@H](N)C(=O)O — pKa: ~12
N=C(N)N — pKa (literature value): > 13
O=C1CN(/N=C/c2ccc([N+](=O)[O-])o2)C(=O)N1 — pKa: ~7.2
CC(O)C(C)n1ncn(-c2ccc(N3CCN(c4ccc(OCC5COC(Cn6cncn6)(c6ccc(Cl)cc6Cl)O5)cc4)CC3)cc2)c1=O (stereo not shown) — pKa (Simcyp input parameter): 3.8
N[C@@H](CC(=O)O)C(=O)O — pKa (carboxylate group): ~3.9
NCCCC[C@H](N)C(=O)O — pKa: ~10
O=C(NO)c1ccccc1 — pKa (hydroxamic acid): 8.85
Cn1cncc1[C@@](N)(c1ccc(Cl)cc1)c1ccc2c(c1)c(-c1cccc(Cl)c1)cc(=O)n2C — pKa (ionisation site 2): 3.3
COc1ccc(CN)cc1 — pKa (amine, free unbound form): 9.6
CC/C=C\C/C=C\C/C=C\C/C=C\C/C=C\C/C=C\CCC(=O)O — pKa: 4.89
Cc1ncc(C[n+]2csc(CCO)c2C)c(N)n1 — pKa: ~4.8
CC(C)(C)NCC(O)c1cc(O)cc(O)c1 (stereo not shown) — pKa: 9.67
CC(=O)c1cc(C(=O)N[C@@H](C)Cn2ccc(-c3ccc(C#N)c(Cl)c3)n2)[nH]n1 — pKa (monoprotic base): 2.4
CCS(=O)(=O)O — pKa (literature value; vs non-fluorinated acids): -1.68
NCc1ccc(Br)cc1 — pKa (amine, free unbound form): 9.1
Cc1ncc(CO)c(C(=O)O)c1O — pKa: 5.4
O=C(c1ccccc1)c1ccc2n1CCC2C(=O)O (stereo not shown) — pKa: ~3.5
CCCCNC(=O)NS(=O)(=O)c1ccc(C)cc1 — pKa (NMR; phospholipid bilayer membrane): ~7
O=C(O)C(F)(F)F — pKa (differential refractometry, literature value): 1.1
COc1ccc([C@@H]2Sc3ccccc3N(CCN(C)C)C(=O)[C@@H]2OC(C)=O)cc1 — pKa: 8.2
C=CC(=O)Nc1cc(Nc2nccc(-c3cn(C)c4ccccc34)n2)c(OCC(F)(F)F)nc1N(C)CCN(C)C — pKa (basic group): 8.69

A few entries again:
O=C(O)C(F)(F)F — pKa (differential refractometry, literature value): 1.1
CC/C=C\C/C=C\C/C=C\C/C=C\C/C=C\C/C=C\CCC(=O)O — pKa: 4.89
CC(O)C(C)n1ncn(-c2ccc(N3CCN(c4ccc(OCC5COC(Cn6cncn6)(c6ccc(Cl)cc6Cl)O5)cc4)CC3)cc2)c1=O (stereo not shown) — pKa (Simcyp input parameter): 3.8
NCc1ccc(Br)cc1 — pKa (amine, free unbound form): 9.1
